Measurements from different studies.
Each line is one published result; not all experiments were run side by side. Numbers after ± are the reported error.

Structure (SMILES)	cell line	test	system	conditions	how to read	measurement	value
COC[C@@H](C)NC1CCC(Nc2cc(-c3cccc(NCC4(C#N)CCOCC4)n3)c(Cl)cn2)CC1 (stereo partly shown)	patient-derived organoid sample D rAsc	organoid viability	human	96 h		IC50	0.169 µM
C[C@H](Nc1ncnc2nc[nH]c12)c1cc2cccc(Cl)c2c(=O)n1-c1ccccc1	basophils	CD63 upregulation, inhibitor	human whole blood	PI3K delta response, added: IgE		IC50	0.015 µM
Cc1[nH]c2ccccc2c1CCNCc1ccc(/C=C/C(=O)NO)cc1	uveal melanoma cell lines	cell viability		average over cell lines		IC50	0.0259 µM
CCOc1cc2ncc(C#N)c(Nc3ccc(OCc4ccccn4)c(Cl)c3)c2cc1NC(=O)/C=C/CN(C)C	Ba/F3 expressing HER2 V777L	cell growth, inhibitor, CellTiter-Glo				IC50	0.0003 µM
COc1ccc(N(C)c2nc(C)nc3ccccc23)cc1OCCCC(=O)NO	uveal melanoma cell lines	cell viability		average over cell lines		IC50	5.87 µM
c1ccc(C[n+]2cn(COC3CCCCC3)c3ccccc32)cc1	H1299 (p53 null)	cell viability, MTT		72 h		IC50	45 ± 6.3 µM
O=C1C(Br)=C(Br)C(=O)c2ccccc21	MRC-5	cell viability, alamarBlue		24 h		IC50	15.4 µM
C=C1C[C@](OC)([C@H](OCOC/C=C/B2OC(CC)(CC)C(CC)(CC)O2)C(=O)NC[C@@H]2C[C@@H](OC)C(C)(C)[C@@H](C[C@@H](COC)OC)O2)O[C@H](C)[C@@H]1C	B16	cell viability, sulforhodamine B		72 h, 37 °C, without H2O2		IC50	0.0038 ± 0.0002 µM
COc1ccc(F)cc1C(=O)NCc1ccc(-c2nn([C@@H](C)C(F)(F)F)c(N)c2C(N)=O)cc1	Rec1	refers to: MIP-1β/CCL4		24 h		IC50	0.0026 ± 0.0018 µM
Cc1cc(Nc2ncnc3ccc(NC4=NC(C)(C)CO4)cc23)ccc1Oc1ccn2ncnc2c1	Ba/F3 expressing HER2 V777L	cell growth, inhibitor, CellTiter-Glo				IC50	0.005 µM
Cc1c(C)c2c(c(C)c1O)CCC(C)(COc1ccc(CC3SC(=O)NC3=O)cc1)O2 (stereo not shown)	hepatocytes, iPSC-derived, line L2	cell viability, RealTime-Glo MT		24 h, differentiation day 23		IC50	34 µM
CC(C)=CCc1ncc(/C=C2\NC(=O)[C@H](C(C)C)NC2=O)[nH]1	NCI-H446/EP	cell growth, SRB				IC50	> 15 µM
COc1cccc2c3c(c[n+](C)c12)sc1cccc(F)c13	H1299 (p53 null)	cell viability, MTT		72 h		IC50	6.3 ± 3.1 µM
CC(=O)N1c2ccc(-c3ccc(C(=O)O)cc3)cc2[C@H](Nc2ccc(Cl)cc2)C[C@@H]1C	uveal melanoma cell lines	cell viability		average over cell lines		IC50	0.169 µM
O=C1c2cccc(O)c2C(=O)c2c(O)cc(CO)cc21	HK-2 co-cultured with HepaRG	MTT		66.67 µM, 24 h	reference: untreated control	viability	135 ± 14.5%
CCS(=O)(=O)Nc1ccc(Oc2ccc(F)cc2F)c(-c2cn(C)c(=O)c3[nH]ccc23)c1	uveal melanoma cell lines	cell viability		average over cell lines		IC50	0.125 µM
COc1cc(N2CCC(N3CCN(C)CC3)CC2)ccc1Nc1ncc(Cl)c(Nc2ccccc2P(C)(C)=O)n1	Ba/F3 ETV6-TRKB	cell viability				IC50	2.64 µM
CS(=O)(=O)CCNCc1ccc(-c2ccc3ncnc(Nc4ccc(OCc5cccc(F)c5)c(Cl)c4)c3c2)o1	Ba/F3 expressing HER2 L755P	cell growth, inhibitor, CellTiter-Glo				IC50	> 1 µM
Cc1cc(C)n(C)n1	THP-1	pyroptotic LDH release		2 µM, 40 min, added: LPS then nigericin		inhibition	14.7%
CC[C@@H](C)[C@H](N)C(=O)N1Cc2ccccc2C1	NOMO-1	cell viability, CellTiter-Glo		day 2		IC50	4.2 µM
CCCCN1C[C@H](O)[C@@H](O)[C@@H](O)[C@H]1CO	sample A patient fibroblasts	acidic compartment staining, LysoTracker Red imaging		216 h		IC50	9.3 µM
CC1=C(CO)C(=O)O[C@@H]([C@@H](C)[C@H]2CC[C@H]3[C@@H]4C[C@H]5O[C@]56[C@@H](O)C=CC(=O)[C@]6(C)[C@H]4CC[C@]23C)C1	THP-1	pyroptotic cell death, inhibitor, CellTiter-Glo		added: LPS priming and nigericin		IC50	0.258 µM
COc1cc(C(=O)NC2CCCNC2)cc(OC)c1OC (stereo not shown)	THP-1	pyroptotic LDH release		2 µM, 40 min, added: LPS then nigericin		inhibition	43.2%

Structure (SMILES)	cell line	test	system	conditions	how to read	measurement	value
CC(=O)c1c(O)c(C)c(O)c2c1OC1=CC(=O)C(C(C)=O)C(=O)C12C (single isomer, unassigned; (+))	hepatocytes, iPSC-derived, line L2	cell viability		24 h		IC50	31 µM
C=CC(C)(C)c1[nH]cnc1/C=C1/NC(=O)[C@H](C(C)C)NC1=O	NCI-H446/EP	cell growth, SRB				IC50	9.95 µM
COc1c(Cl)cccc1Nc1c(-c2ccncc2OC[C@@H]2COCCO2)[nH]c2c1C(=O)NCC2	Ba/F3 expressing HER2 L755P	cell growth, inhibitor, CellTiter-Glo				IC50	0.0116 µM
CC(=O)O[C@H]1C(=O)[C@@]2(C)[C@H]([C@H](OC(=O)c3ccccc3)[C@]3(O)C[C@H](OC(=O)[C@H](O)[C@@H](NC(=O)c4ccccc4)c4ccccc4)C(C)=C1C3(C)C)[C@]1(OC(C)=O)CO[C@@H]1C[C@@H]2O	MCF7 (compound-resistant)	cell growth, inhibitor, CellTiter-Glo		96 h		IC50	0.0445 µM
C=CC(=O)NC1CCN(c2ncc3ncnc(Nc4ccc(Oc5ccc6c(c5)ncn6C)c(C)c4)c3n2)CC1	Ba/F3 expressing HER2 L755P	cell growth, inhibitor, CellTiter-Glo				IC50	0.0692 µM
O=C(C[C@@H](C(F)F)n1ccc(F)n1)N1CCC(O)(Cn2cnc3c(cnn3-c3ccc(F)cc3)c2=O)CC1	LNCaP USP7 V517F knock-in	cell viability, CCK-8		5 days		IC50	5.82 µM
C[C@H]1Oc2cc(cnc2N)-c2c(nn(C)c2C#N)CN(C)C(=O)c2ccc(F)cc21	Ba/F3 ETV6-TRKB	cell viability				IC50	0.248 µM
O=C(O)COCC(=O)O	hepatocytes, iPSC-derived, line L2	cell viability, RealTime-Glo MT		24 h, differentiation day 23		IC50	10100 µM
O=C(O)CCCc1ccccc1	2008 ovarian adenocarcinoma, cisplatin-sensitive	MTT		72 h		IC50	> 50 µM
COc1cc([C@@H]2c3cc4c(cc3[C@H](O)[C@H]3COC(=O)[C@H]23)OCO4)cc(OC)c1OC	uveal melanoma cell lines	cell viability		average over cell lines		IC50	0.00936 µM
CC1(C)CC(=O)C2=C(C1)Oc1ccc(Cl)cc1C2n1nnc2ccccc21 (stereo not shown)	3T3-L1 pre-adipocytes	cell viability, MTT		72 h		IC50	24.7 ± 2.34 µg/mL
C[C@@H]1CN(C(=O)c2ccc(NC(=O)c3cc(O[C@H](C)c4c(Cl)ccc(F)c4Cl)c(N)nn3)cc2)C[C@H](C)N1	Ba/F3 EML4-ALK variant 1 L1196Q	cell viability				IC50	0.0216 µM
O=C1CCCC2=C1C(c1c(C(=O)O)[nH]c3ccccc13)c1c(ccc3ccccc13)O2 (stereo not shown)	3T3-L1 pre-adipocytes	cell viability, MTT		72 h		IC50	46.1 ± 1.66 µg/mL
N[C@@H](CC(=O)N1CCN(C(c2ccc(F)cc2)c2ccc(F)cc2)CC1)C(=O)N1Cc2ccccc2C1	NOMO-1	cell viability, CellTiter-Glo		day 2		IC50	4.7 µM
CC1(C)CC[C@]2(NC(=O)C(C)(F)F)CC[C@]3(C)[C@H](C(=O)C=C4[C@@]5(C)C=C(C#N)C(=O)C(C)(C)[C@@H]5CC[C@]43C)[C@@H]2C1	THP1-ASC-GFP cells	ASC speck formation, high-content imaging		1 h pretreatment, added: LPS priming and nigericin		IC50	0.198 µM
Cc1nc(Nc2ncc(C(=O)Nc3c(C)cccc3Cl)s2)cc(N2CCN(CCO)CC2)n1	MIA PaCa-2	cell viability, MTT		mutant KRAS primary		IC50	4.85 µM
O=C1/C(=C/c2ccccc2)C(NC2CCCCC2)c2ccccc21 (stereo not shown)	THP1-ASC-GFP cells	ASC speck formation, high-content imaging		1 h pretreatment, added: LPS priming and nigericin		IC50	0.228 µM
CC(C)C[C@H](NC(=O)[C@H](Cc1ccccc1)NC(=O)c1cnccn1)B(O)O	uveal melanoma cell lines	cell viability		average over cell lines		IC50	0.00758 µM
COc1c(-c2coc3cc4c(cc3c2=O)CC(OC(C)=O)C(C)(C)O4)ccc2c1C=CC(C)(C)O2 (stereo not shown)	hTERT-HM	cell viability, WST-1		72 h		IC50	123 µM
CC1(C)COc2ccc(F)cc2CN2c3nc4c(cnn4cc3OC[C@H]2C(F)F)C(=O)N1	Ba/F3 ETV6-TRKB	cell viability				IC50	0.0009 µM
C=CC(=O)N1CCC[C@@H](n2nc(-c3ccc(Oc4ccccc4)cc3)c3c(N)ncnc32)C1	platelets from XLA patients (Btk-deficient)	platelet aggregation		added: CRP 10 µg/mL, 180 s		IC50	0.086 µM
Cc1cc(Nc2ncc(Cl)c(Nc3ccccc3S(=O)(=O)C(C)C)n2)c(OC(C)C)cc1C1CCNCC1	Ba/F3 ETV6-TRKB	cell viability				IC50	1.41 µM
Cc1c(C(=O)O)ccc2c3n(nc12)[C@@H]1[C@H](C3)N(CC2CC2)[C@@]2(C(=O)Nc3cc(Cl)ccc32)[C@H]1c1cccc(Cl)c1F	resistant cancer cell lines	cell viability, PRISM pooled screen		median, low sensitivity		IC50	7.27 µM
